{"data": "Assay results from different studies", "note": "Lines come from different studies, so protocols differ. Values joined by “and” are separate records of one study, mostly repeats; a detail may differ. ± gives the spread as reported."}
{"Structure (SMILES)": "COc1cc(CCC[P+](c2ccccc2)(c2ccccc2)c2ccccc2)c(OC)c2c1OCO2.[I-]", "target or system": "SK-OV-3", "assay": "SRB", "quantity": "TGI", "value": "-5.19 log M"}
{"Structure (SMILES)": "CC(C)CN(C[C@@H](O)[C@H](Cc1ccccc1)NC(=O)O[C@H]1CO[C@H]2OCC[C@H]21)S(=O)(=O)c1ccc(N)cc1", "target or system": "ΔE-expressing cells", "assay": "ΔE mislocalization, high-content imaging", "quantity": "EC50", "value": "inactive"}
{"Structure (SMILES)": "Nc1ncnc2c1ncn2[C@@H]1O[C@@H]2COP(=O)(O)O[C@H]3[C@@H](O)[C@H](n4cnc5c(=O)[nH]cnc54)O[C@@H]3COP(=O)(O)O[C@H]2[C@H]1O", "target or system": "HFF-1", "assay": "RNA sequencing, item: Reactome Nicotinate metabolism", "conditions": "upregulated pathways", "scale": "baseline: mock", "quantity": "fold enrichment", "value": 11}
{"Structure (SMILES)": "CN1CCN(C2(CNC3CCN(c4cccc(-c5cc6cc(F)ccc6[nH]5)c4)CC3)CCC2)CC1", "target or system": "A498", "quantity": "GI50", "value": "1.68 µM"}
{"Structure (SMILES)": "COc1ccc([C@H]2c3[nH]c4ccc(Cl)cc4c3CCN2C(=O)Oc2ccc(Cl)cc2)cc1", "target or system": "human dermal fibroblasts with PBMC", "assay": "cytokine secretion, item: sIL-6", "conditions": "0.001 µM, 48 h", "quantity": "inhibition", "value": "33%"}
{"Structure (SMILES)": "CN1CCc2cc3c(cc2[C@H]1[C@@H]1OC(=O)c2c1ccc1c2OCO1)OCO3", "target or system": "glutamatergic hiPSC-derived neurons", "assay": "multi-electrode array", "conditions": "2 h, highest concentration tested", "scale": "baseline: vehicle", "quantity": "mean firing rate", "value": "1.2 fold"}
{"Structure (SMILES)": "C/C=C(/C)C(=O)O[C@H]1C(C)=C2[C@H]([C@@H]1OC(=O)CCCCCCC)[C@@](C)(OC(C)=O)C[C@H](OC(=O)CCC)[C@@]1(O)[C@H]2OC(=O)[C@@]1(C)O", "target or system": "HEK-293T", "assay": "RNA-seq GSEA, item: Hallmark coagulation", "conditions": "500 nM, 6 h", "scale": "direction not given", "quantity": "normalized enrichment score", "value": -1.11}
{"Structure (SMILES)": "N.N.[Cl][Pt][Cl]", "target or system": "Jurkat E6-1", "assay": "cell proliferation, CellTiter-Glo", "conditions": "10 µM, 72 h", "quantity": "inhibition", "value": "100%"}
{"Structure (SMILES)": "C[C@@H]1O[C@@H](O[C@H]2C[C@@H](O)[C@]3(CO)[C@H]4[C@H](O)C[C@]5(C)[C@@H](C6=CC(=O)OC6)CC[C@]5(O)[C@@H]4CC[C@]3(O)C2)[C@H](O)[C@H](O)[C@H]1O", "target or system": "iPSC-derived cardiomyocytes", "assay": "concentration-response fit", "scale": "baseline: vehicle", "quantity": "fitted bottom MyBP-C/MYH ratio", "value": "37.6%"}
{"Structure (SMILES)": "Cc1nn(-c2nc3ccc(Cl)c(Cl)c3[nH]2)c(O)c1C1OC(=O)c2ccccc21 (centres unmarked)", "target or system": "RAW-ISG", "assay": "CCK-8", "conditions": "1 µM", "quantity": "viability", "value": "111% and 102% and 108% and 98.2%"}
{"Structure (SMILES)": "N#CC(=Cc1ccc(O)cc1)C(=O)O", "target or system": "human neutrophils", "assay": "sulfate/chloride exchange, competitive inhibitor", "quantity": "Ki", "value": "~230 µM"}
{"Structure (SMILES)": "CN1CC[C@]2(C)c3cc(OC(=O)Nc4ccccc4)ccc3N(C)[C@H]12", "target or system": "human PBMC", "assay": "ELISA, item: IL-1β", "conditions": "0.1 to 10 µM, with: PHA 20 µg/mL", "quantity": "inhibition", "value": "~50%"}
{"Structure (SMILES)": "CN(C)CC[C@@H](c1ccc(Br)cc1)c1ccccn1", "target or system": "Plasmodium falciparum", "test system": "Dd2", "quantity": "IC50", "value": "6.31 µM"}
{"Structure (SMILES)": "Oc1cc(Cl)ccc1Oc1ccc(Cl)cc1Cl", "target or system": "HepG2", "assay": "protein level, item: TNFAIP3 (A20)", "conditions": "1 h", "quantity": "representative mode point of departure", "value": "28.8 µM"}
{"Structure (SMILES)": "CC(c1ccccc1)(c1ccc(O)cc1)c1ccc(O)cc1", "target or system": "HepG2 spheroids", "assay": "Hoechst flow cytometry", "conditions": "40 µM, 24 h", "quantity": "G1 phase cells", "value": "73.9 ± 4.49%"}
{"Structure (SMILES)": "COc1ccc2c(c1)[nH]c1c(C)nccc12", "target or system": "DU-145", "assay": "bisulfite pyrosequencing, item: RASSF1A promoter CpG site 16", "conditions": "concentration not given", "scale": "baseline: vehicle", "quantity": "methylation reduction", "value": "2.34%"}
{"Structure (SMILES)": "O=c1cc(-c2ccccc2)oc2cc(O)ccc12", "target or system": "HaCaT keratinocytes", "assay": "LC-MS", "conditions": "5 µM, 6 h, benzo[a]pyrene-induced, with: imiquimod 0.5 µM", "quantity": "imiquimod monohydroxylated metabolite formation", "value": "inhibited"}
{"Structure (SMILES)": "CC[C@H](C)[C@@H]([C@@H](CC(=O)N1CCC[C@H]1[C@H](OC)[C@@H](C)C(=O)N[C@@H](Cc1ccccc1)C(=O)O)OC)N(C)C(=O)[C@@H](NC(=O)[C@H](C(C)C)N(C)C(=O)CCSSC[C@H](NC(=O)[C@@H](NC(=O)CNC(=O)[C@H](CCC(=O)O)NC(=O)[C@H](CC(=O)O)NC(=O)[C@H](C)NC(=O)[C@H](CC(=O)O)NC(=O)[C@@H](NC(=O)[C@H](CC(C)C)NC(=O)[C@H](CC(C)C)NC(=O)[C@H](C)NC(=O)[C@H](CC(C)C)NC(=O)[C@H](CC(=O)O)NC(=O)[C@H](CC(C)C)NC(=O)[C@H](CC(C)C)NC(=O)[C@H](CC(C)C)NC(=O)[C@H](CC(C)C)NC(=O)[C@@H]1CCCN1C(=O)[C@@H](NC(=O)[C@@H](NC(=O)[C@H](Cc1ccccc1)NC(=O)[C@H](CC(C)C)NC(=O)[C@H](Cc1c[nH]c2ccccc12)NC(=O)[C@H](CC(=O)O)NC(=O)[C@H](C)NC(=O)[C@H](Cc1ccc(O)cc1)NC(=O)[C@H](CCC(N)=O)NC(=O)[C@H](C)NC(=O)[C@H](Cc1c[nH]c2ccccc12)NC(=O)[C@H](Cc1ccc(O)cc1)NC(=O)[C@@H](NC(=O)[C@@H]1CCCN1C(=O)[C@H](CC(N)=O)NC(=O)[C@H](CCC(N)=O)NC(=O)[C@H](CCC(=O)O)NC(=O)[C@H](C)NC(=O)[C@H](C)N)[C@@H](C)CC)[C@@H](C)O)[C@@H](C)O)C(C)C)[C@@H](C)O)C(=O)NCC(N)=O)C(C)C", "target or system": "HeLa", "assay": "cell growth, MTT", "conditions": "2 h", "scale": "baseline: IC50 pH 7.4 over IC50 pH 5.0", "quantity": "selectivity ratio", "value": "5.3 fold"}
{"Structure (SMILES)": "Cn1cncc1C1=CN(c2ncnc3[nH]cnc23)CCS1", "target or system": "SNB-75", "conditions": "CNS cancer", "quantity": "CC50", "value": "141 µM"}
{"Structure (SMILES)": "Cn1cc2cc(C(F)(F)c3nnc4ccc(-c5cnn(C6CC6)c5)nn34)c(F)cc2n1", "target or system": "MKN-45", "assay": "PI flow cytometry", "conditions": "2 nM, 24 h", "quantity": "cells in G1 phase", "value": "43.6% and 43.7% and 42.7%"}
{"Structure (SMILES)": "Nc1ncc(-c2nc(N3CCOCC3)nc(N3CCOCC3)n2)c(C(F)F)n1", "target or system": "A498", "conditions": "72 h", "quantity": "GI50", "value": "0.041 µM"}
{"Structure (SMILES)": "COc1c(C)c2c(c(O)c1C/C=C(\\C)CCC(=O)O)C(=O)OC2", "target or system": "SK-LMS-1", "assay": "cell proliferation", "test system": "uterus cancer", "quantity": "IC50", "value": "0.708 µM"}
{"Structure (SMILES)": "CCN(CC)c1ccc(C=NNC(=O)CSc2nc3ccccc3c(=O)n2Cc2ccc(S(N)(=O)=O)cc2)c(O)c1", "target or system": "SNB-75", "assay": "NCI five-dose screen", "quantity": "CC50", "value": "> 100 µM"}
{"Structure (SMILES)": "CO[C@H]1/C=C\\C=C(/C)C(=O)NC2=CC(=O)C(NCCN(C)C)=C(C[C@@H](C)C[C@H](OC)[C@H](O)[C@@H](C)/C=C(\\C)[C@@H]1OC(N)=O)C2=O", "target or system": "iPSC-derived cardiomyocytes", "assay": "initial hit retest", "conditions": "concentration not given, 24 h, plate-normalised", "quantity": "MyBP-C protein level", "value": "32%"}
{"Structure (SMILES)": "O=c1[nH]sc2cc(F)ccc12", "target or system": "C127 LDR GFP reporter cells", "assay": "silenced GFP reporter induction, activator, high-content imaging", "conditions": "retest, two-run mean", "quantity": "efficacy", "value": "62%"}
{"Structure (SMILES)": "NCC(O)C1CCCCCCC1 (centres unmarked)", "target or system": "Plasmodium falciparum", "test system": "7G8", "quantity": "IC50", "value": "10 µM"}
{"Structure (SMILES)": "Cn1nccc1Nc1nccc(-c2cc3c(s2)C(C)(C)N(CCN2CCOCC2)C3=O)n1", "target or system": "HCT116", "assay": "IncuCyte", "conditions": "concentration not given, 0 (unit not given)", "quantity": "PI-positive cells", "value": "2.42 count and 3.75 count and 2.92 count"}
{"Structure (SMILES)": "Oc1ccc(C(c2ccc(O)cc2)(C(F)(F)F)C(F)(F)F)cc1", "target or system": "HepG2 spheroids", "assay": "Hoechst flow cytometry", "conditions": "1 µM, 96 h", "quantity": "G2 phase cells", "value": "16.3 ± 6.73%"}
{"Structure (SMILES)": "Cc1c(O)c(O)cc2c1CC=C1[C@@]2(C)CC[C@@]2(C)[C@@H]3C[C@](C)(C(=O)O)CC[C@]3(C)CC[C@]12C", "target or system": "iPSC-derived cardiomyocytes", "assay": "concentration-response curve, item: MyBP-C/MYH ratio", "conditions": "24 h", "quantity": "EC50", "value": "8 µM"}
{"Structure (SMILES)": "CCC(=O)N(CCC#N)c1ccc2c(c1)OCCN2CC(=O)NCC(=O)Nc1ccc(C(=O)NCCCCCCC(=O)NO)cc1.O=C(O)C(F)(F)F", "target or system": "MM1.S", "assay": "annexin V/PI flow cytometry", "conditions": "10 µM, 48 h", "quantity": "apoptotic cells", "value": "no effect"}
{"Structure (SMILES)": "COC(=O)/C(C)=C\\C[C@@]12OC(C)(C)[C@@H]3C[C@@H](C=C4C(=O)c5c(O)c6c(c(CC=C(C)C)c5O[C@]431)O[C@](C)(CCC=C(C)C)C=C6)C2=O", "target or system": "iPSC-derived cardiomyocytes", "assay": "concentration-response curve, item: MyBP-C protein level", "conditions": "24 h", "quantity": "EC50", "value": "7.7 µM"}
{"Structure (SMILES)": "O=S(=O)(c1ccc(O)cc1)c1ccc(O)cc1", "target or system": "HepG2 spheroids", "assay": "planimetry", "conditions": "10 µM, 0 to 96 h", "scale": "baseline: mean area of 72 h spheroids", "quantity": "spheroid area increase", "value": "196%"}
{"Structure (SMILES)": "CC(C)N1CCC(NC2CCN(c3cccc(-c4cc5cc(F)ccc5[nH]4)c3)CC2)CC1", "target or system": "A498", "quantity": "GI50", "value": "1.47 µM"}
{"Structure (SMILES)": "COc1c(CCC[P+](c2ccccc2)(c2ccccc2)c2ccccc2)cc2c(c1OC)OCO2.[I-]", "target or system": "NCI-H226", "assay": "SRB", "quantity": "LC50", "value": "> -4 log M"}
{"Structure (SMILES)": "Cn1nccc1Nc1nccc(-c2ccn([C@H](CO)c3ccc(Cl)c(F)c3)c(=O)c2)n1", "target or system": "HCT116", "assay": "IncuCyte", "conditions": "concentration not given, 24 (unit not given)", "quantity": "PI-positive cells", "value": "5.42 count and 4.67 count and 6.58 count"}
{"note": "Some of these lines once more:"}
{"Structure (SMILES)": "COC(=O)/C(C)=C\\C[C@@]12OC(C)(C)[C@@H]3C[C@@H](C=C4C(=O)c5c(O)c6c(c(CC=C(C)C)c5O[C@]431)O[C@](C)(CCC=C(C)C)C=C6)C2=O", "target or system": "iPSC-derived cardiomyocytes", "assay": "concentration-response curve, item: MyBP-C protein level", "conditions": "24 h", "quantity": "EC50", "value": "7.7 µM"}
{"Structure (SMILES)": "O=S(=O)(c1ccc(O)cc1)c1ccc(O)cc1", "target or system": "HepG2 spheroids", "assay": "planimetry", "conditions": "10 µM, 0 to 96 h", "scale": "baseline: mean area of 72 h spheroids", "quantity": "spheroid area increase", "value": "196%"}
